Published values pooled from the literature.
Every numbered part comes from another study and shows a few of its results, in no order.

Series 1
Target: Phosphate system positive regulatory protein PHO4, full length, GST-tagged (PHO4, Saccharomyces cerevisiae, UniProt P07270, residues 1-312)
Method: competition protein-binding microarray
Form: double-stranded DNA, one strand shown
Medium: in vitro
Concentration: 2 µM
Setting: whole 60-bp probe, lowest competitor level
Together with: Cbf1 competitor, 0.05 µM
Direction: higher = stronger binding
Constant ends, left off below: … GTCTTGATTCGCTTGACGCTGCTG
Target sequence (chain): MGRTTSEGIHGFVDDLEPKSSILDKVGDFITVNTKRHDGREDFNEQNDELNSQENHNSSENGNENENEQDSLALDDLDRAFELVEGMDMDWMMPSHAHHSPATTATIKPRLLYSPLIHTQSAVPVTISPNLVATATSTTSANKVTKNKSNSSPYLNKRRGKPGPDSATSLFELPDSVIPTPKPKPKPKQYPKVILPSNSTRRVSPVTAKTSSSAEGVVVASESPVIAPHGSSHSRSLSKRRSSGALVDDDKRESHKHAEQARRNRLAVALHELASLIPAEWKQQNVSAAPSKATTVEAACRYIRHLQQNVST
Strand | fluorescence intensity [a.u.]
AAATTACTAAGTTGTTGAGTGGGTGACGCCGTATGA | 3760
AATTATTTAAGCTCACACAGGCAGAAATCAAGGGAT | 4190
AAAGCGGTAATTTGTCACGACACTTCACATATCTAT | 5670
AGTCCGGTGTGTAGGTGCATGACAGATTGGTCCGGC | 5340
CTTCTGTAAATTTGTGCTGTGGGTGGACGCGCCCCG | 5000
GTACTGCATCTTATTCCCGTGCCAGGGTCTCTGGGT | 9610
CTAGTACAGTTCATGATGGTGTGCCATCTGTACAAT | 5570
CACAGACCTTACTTCCACGTTAGTGTCATCGAAGAT | 6120
CGGGGTTAAGTTTGCTTAGTGGGTGGCTTGCAGCAG | 4290
AATCTCCACTTTACCAATGTGACAGTCTAGACAAGC | 4640
GTCTTGTCTCATTGTCACCATACTTTCCCCACTTCA | 4770
TGAATGACTTGTTGGAACGTGGTGAAATTTCTTTGG | 12200
GTCTTGTCTCATTGGCAGGTGGGTGTCCCCACTTCA | 6650
CTGTCGTCGTAGGTTCTCGTGGTGATGACCTTACTA | 7960
CTTCTGTAAATTTGGCCCGTGGGTGGACGCGCCCCG | 8520
CGGCCCAGATTTTTTCACCTGACTCCGGTCCTGACG | 2670
GCCATCCAAAACTTGCCCGTGGTGAACTCATTCGGA | 6540
AGGTGCCTTAAAGAACACGCGGACACACTTGTTTGG | 10900
GAGATTGACCTGTGTCTCGTGCTTTTCTTCCGCCTT | 9490
GCCCGGTCGTTTGGATGCGTGGGTAGTATAGTTTCT | 7680

Series 2
Target: Max-binding protein MNT, bHLH-zipper, MAX partner unstated (MNT, Homo sapiens, UniProt Q99583, residues 220-300)
Method: protein-binding microarray
Form: double-stranded DNA, one strand shown
Medium: in vitro
Concentration: not given
Setting: k-mer, scored over probes, only values ≥0.25
Direction: higher = stronger binding
Construct (chain): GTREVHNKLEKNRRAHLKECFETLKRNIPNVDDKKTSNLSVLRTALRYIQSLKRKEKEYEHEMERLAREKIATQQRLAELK
Strand | E-score
CGTGAGCA | 0.292
AGAACACG | 0.399
AACCACGC | 0.411
CATCCACG | 0.321
CACTCACG | 0.27
TGCGCACA | 0.317
AGGTCATG | 0.251
GTTTACGA | 0.272
CCCATGGC | 0.252
CGTGACAA | 0.331
CGTGTCAC | 0.43
ACCACGCG | 0.472
CACCCATG | 0.37
ACATGGGA | 0.316
CATGCGCA | 0.411
AAACATGC | 0.367
ATGCGTGG | 0.354
AACACGCC | 0.344
ACGCGATA | 0.289
AAGCATGT | 0.409
CGCCCCAC | 0.383
AGCGTGAC | 0.375

Series 3
Target: PABPC1L2, full length, GST fusion (mouse, UniProt A0ABA7IW68)
Method: RNAcompete
Form: RNA
Medium: in vitro
Concentration: 20 nM
Setting: 7-mer, probes averaged, single round
Relative to: mean of 7-mers
Direction: higher = stronger binding
Target sequence (chain): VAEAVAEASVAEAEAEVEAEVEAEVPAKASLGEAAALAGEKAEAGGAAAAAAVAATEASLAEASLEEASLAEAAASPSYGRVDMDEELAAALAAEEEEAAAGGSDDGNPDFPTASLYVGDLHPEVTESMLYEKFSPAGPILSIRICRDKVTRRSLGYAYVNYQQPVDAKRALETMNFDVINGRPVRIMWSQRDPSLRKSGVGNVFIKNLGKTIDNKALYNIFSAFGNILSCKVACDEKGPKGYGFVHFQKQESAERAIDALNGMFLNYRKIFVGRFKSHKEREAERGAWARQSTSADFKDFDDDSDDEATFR
Strand | 7-mer Z-score
CCUCUCG | -0.315
CUUCUGC | -0.315
GAUAUUA | -0.171
CUUACGG | -0.155
UGUGAAU | -0.171
AGAAGAG | 0.213
AUAAUAU | 0.0334
CCGAAAU | 0.0334
GAUAGAU | -0.0591
CAGUAGU | -0.161
ACUCAUU | -0.141
UUUUCAC | -0.458
CUGGAUC | -0.117
GUGUCCA | -0.195
UCACUAG | -0.155
UGGCUAC | -0.132
UUCGGAG | 0.00798
AGUCUUU | -0.398
CAUCCGC | -0.416
UCUAGGA | -0.112
AAAAAAG | 23.8
UAGAAAU | 1.45
AUUGCUU | -0.275

Series 4
Target: RNA binding protein fox-1 homolog 2, RRM domain, GST-SBP tag (RBFOX2, Homo sapiens, UniProt O43251-10, residues 100-194)
Method: RNA Bind-n-Seq
Form: RNA
Medium: in vitro
Concentration: 365 nM
Setting: natural RNA segment, single round, ends assumed
Relative to: no-protein control
Direction: higher = stronger binding
Constant ends, left off below: GGGAGUUCUACAGUCCGACGAUC … UGGAAUUCUCGGGUGCCAA
Residues (chain): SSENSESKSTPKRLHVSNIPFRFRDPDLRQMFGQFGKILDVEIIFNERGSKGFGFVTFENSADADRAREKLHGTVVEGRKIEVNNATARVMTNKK
Strand | RBNS enrichment (R)
UCACCUUGCAGCUUGUGCUGAGACUGACCCAAGUGCAGCUAGCACUGGGACACAGAUCCUUGUCUUCAGCACCUUCCAAGGAGCCAACUUUUAUUCCCUUUCCUCUCUCC | 0.555
UAGGUUUUGUUUUUCCUUGAGAGCCUUUUUUUAGGCCCCACAGACAGUGGUGGGUGGGGAGGCGAUAGGAAACACAUUCCCCAGUGUGCAUUUAACAUUCAUAGCCUACA | 0.49
CACUGGACGGGUGCUGCAUCGGCAAGGCCAAGUUGAACACCGGAUGGUGCCAACCAUCGGUUGUUUGGCAGCAGCUUUGAACGUAGCGCCUGUGAACUCAGGAAUGCACA | 0.829
UUUUCAACCAGUAUAUCACUAAAAGUUAUAUCAAAGCUUUAUCAGUUCAAGUUUCUUGCUUUUCAUAAUACUUUUUUCUGAUGCAAUUUUAUAUUUUCAAACAUGGCAAG | 0.616
UAAUACAUUGUAAAAAGUAUUAAAUCCUUUGAAACAUCUUUUGUUGCUUAUUUAGUUUUUGUUUCUACAGGUCAAACAUGAUUGCUUUCUAUAAAAGAAAUGCUUGAGAG | 0.908
CUCCCACUCUGGCUCCUUGUUCUCUGGCAAACCGUAGCGUGGCUGCCAGCAUCCUGUAGCGCGGAUAGCUGCUUCCAUGGCCACAGGCCUGAACCGGUGUGUAUUUGGGG | 0.303
CGAGCUCAUCAUGAGAUGCCAACGCCCGUGGUCGAUUUAUAUAUAUUUUUUUGUAAUUAUUAUAUUCUAGUUUGGAGUACUUGCUGUAGGAUUCAAGCUGUCUUUGCACU | 0.609
GAUUUAAGCCUAGGGAUUUUAUUUUUAUAAAUACCAAAUCAUCAUUAGACUAAUCACUGGUGGAAAUUAAAUAUGGCAGUUAUGUUAGGUUUCCUAAUAUUUCAAAGGUU | 0.503
GAUAUAAUCCAGAAAUUGUUACUUCGGAGCAUGACAAUAGAUUUCUUUAACAAAGACUCAAGAUCAAAUUUCUUACCUAAAAGUUUAGGUUAACUGUUGACUCCUCAAGG | 1.95
UUUUCUUGGCAAGUUUUAUUGUGAGUUUUUCUAAUUAUGAAGCAAAAUUUCUUUUCUCCACCAUGCUUUAUGUGAUAGUAUUUAAAAUUGAUGUGAGUUAUUAUGUCAAA | 0.932
UAUAGGACUUUAAAGCUCCUUUUGGCAUAGGGAAGUCACGAAGGAUUGCUUGACAUCAGGAGACUUGGGGGGGAUUGUAGCAGACGUCUGGGCUUUUCCCCACCCAGAGA | 1.61
CCAGCUCCUCAGGUUUAACCUCUAAGUUGUGGAUGGAGACUAUUUAAAGUACACAUGAUGUAUUCAGUGCUGCAAGAGUGUUUGAAAUGAGCACACUGCCUCAUUUUCCU | 0.467

Series 5
Target: Histone acetyltransferase KAT6A, both winged helices, GST fusion (KAT6A, Homo sapiens, UniProt Q92794, residues 1-181)
Method: protein binding microarray
Form: double-stranded DNA, one strand shown
Medium: in vitro
Concentration: not given
Setting: 8-mer, flanks averaged, mean of 2 arrays, mostly near background
Relative to: not given
Direction: higher = stronger binding
Residues (chain): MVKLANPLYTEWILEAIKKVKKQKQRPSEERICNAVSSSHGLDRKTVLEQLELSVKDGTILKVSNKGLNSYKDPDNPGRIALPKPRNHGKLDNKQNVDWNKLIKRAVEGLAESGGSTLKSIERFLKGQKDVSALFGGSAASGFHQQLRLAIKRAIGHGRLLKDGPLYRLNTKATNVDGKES
Strand | E-score
TCGACACA | -0.00331
ACGGCGGA | 0.243
ATAGTTAG | -0.131
GCGGAGGA | 0.0954
ATAAGTGC | -0.00261
ATTACCAG | -0.0882
TCACAAAA | -0.0418
CTACTCTA | -0.134
AGAGATTG | -0.0424
GTTGTGGA | -0.107
CACGGAAA | 0.284
AGTCGGCA | 0.116
CATACGAG | -0.0564
ATCTTACC | -0.0543
TATAAACA | -0.0569
AGGGTGCC | -0.0517
AGCCCGGA | 0.129
ACAAAAAG | -0.116
GCGACAGA | 0.135
AGTCGGCG | 0.229

A few entries again (series 3):
Strand | 7-mer Z-score
CUUACGG | -0.155
UGUGAAU | -0.171
AGAAGAG | 0.213
AUAAUAU | 0.0334
CCGAAAU | 0.0334
GAUAGAU | -0.0591
CAGUAGU | -0.161
ACUCAUU | -0.141
UUUUCAC | -0.458
CUGGAUC | -0.117
GUGUCCA | -0.195
UCACUAG | -0.155
